Experimental data of several laboratories.
Parts stem from different laboratories: compare values within a part only.

Sample 1 — method: RNA Bind-n-Seq; molecule type: RNA; matrix: in vitro; tested at: 365 nM; relative to: no-protein control; direction: higher = stronger binding
Target: RNA binding protein fox-1 homolog 2, RRM domain, GST-SBP tag (RBFOX2, Homo sapiens, UniProt O43251-10, residues 100-194)
Notes: natural RNA segment, single round, ends assumed
Target sequence (chain): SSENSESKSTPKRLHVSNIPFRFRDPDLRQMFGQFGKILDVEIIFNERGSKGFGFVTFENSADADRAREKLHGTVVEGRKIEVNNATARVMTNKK
Under “RBNS enrichment (R)”, `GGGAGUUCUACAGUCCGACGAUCCCUCUUGGGCCCCCUGCACUCGGUCUCCCCUGGAGUUUCUGAAUUCUCUCACCCAAGUCCCUACACAGUCAUGAACACCACACCCAAGCCUAGCCAUCCACCCCACACGGUGGAAUUCUCGGGUGCCAA` is recorded as 0.598.
Under “RBNS enrichment (R)”, `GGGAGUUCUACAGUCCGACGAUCGAAAUGUUCUCUAGGAUUCUAAAAUAGGCAGGUACUUUACUAUGUUACUGUACCCUGCAGUGUUGAUUUUUAAAAUAGAGUUUUCUGCAGUAUGCUUUUAGUCUAAGAAAUGGAAUUCUCGGGUGCCAA` is recorded as 0.666.
Under “RBNS enrichment (R)”, `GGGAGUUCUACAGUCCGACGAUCCAGUAGACCGUUGGCUCUUUCCUUUGUGCACAUGUGACCCUUGCUAAUGUGAUGGAUGUGUCUGGUAAUGCGAAACAACUUAUUUCCGUCUACUGCUCAGCACUUUGGUAUGGAAUUCUCGGGUGCCAA` is recorded as 0.865.
`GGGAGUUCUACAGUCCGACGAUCAAUGGAGCCUGAGCUGCUUAGAAGCCUUGGUUCAGGAUUCCAGCUGGGUUCAUGACUGUGAACACAAUGUGCCCUGUGCUGGGCCACAGCUUCCUUGUUUAUGAAGUGAGUGGAAUUCUCGGGUGCCAA` — result for “RBNS enrichment (R)”: 0.29.
For `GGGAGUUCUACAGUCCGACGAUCGCUGCUCUGCACCCCUCCUGCCGGGAGGCUCUGUGUGGUUAUUGCCAGUUCUUUGUUUACUUUUCAGGUUUGUACUACAAGGUUUAAUAAUAAAAAGUUUUUUGGACAUUUGGAAUUCUCGGGUGCCAA`, “RBNS enrichment (R)” read 0.379.
`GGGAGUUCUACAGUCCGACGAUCUACUUGAAGUACUUGCCUUUUUUGUUUCCUCAGUUUUAUGUUCUUGCAUUAUAAUUUUAUCCUAACCUCCAAAGAUAUUUGCACUGCUUUUAAUUACUGCUGUAUAUUUGUGGAAUUCUCGGGUGCCAA`: “RBNS enrichment (R)” 1.37.
Under “RBNS enrichment (R)”, `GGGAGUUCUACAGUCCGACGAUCGGGCCCAUGGCCCCAGCUGGCUGGGUCGCCCCUCCUCGGGCGCCUGCGCUCCUCUGCAGCCUGAGCUCCACCCUCCCCUCUUCUUGCGGCACCGCCCACCCACACCCCGUUGGAAUUCUCGGGUGCCAA` is recorded as 0.884.
Under “RBNS enrichment (R)”, `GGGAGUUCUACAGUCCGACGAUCAGGAUGAAGGCUAACGGCUGUGCUUGCCCUGGUUACUGGAUGGGAUUCUCUGCUGGGCGGGUGGGGAAGCAGCUCUACCCUUCCCUACCCCUCCCUGCCCCAACUCUGACUGGAAUUCUCGGGUGCCAA` is recorded as 0.968.
`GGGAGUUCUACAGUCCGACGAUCCUUUGUAGACAUUGGUAUUUGUUUUACUUAGCAAUAAGAAUGGUGAAAUUCAAAUUCUCGUUUAGAAGUGAAAGCUGUCAGGUUGAUAGCAAGCAUGCACAUCAAAUUCAUGGAAUUCUCGGGUGCCAA` — result for “RBNS enrichment (R)”: 19.7.
For `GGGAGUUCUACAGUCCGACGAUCCACUUGCCUCGUGAGACUUCAUAGAACAGUGGUUUACUGUCCCCCCCUUCUCACCUCCUCAUUCUCUCUGGCUCUUUCUGUCUUCCUCUUCUCACCCUCCUCCCUCCCCUUGGAAUUCUCGGGUGCCAA`, “RBNS enrichment (R)” read 1.1.
`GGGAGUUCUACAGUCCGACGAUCCUCAUAGGGCUGAACCAGUGGGGCUGACGGGCCAGGUCAGCCUUGGACCCUUGAUCCUGGAGGACCCUGGAAGGGGUGGUUCCCUGUAAGCUCCCAAGAUCUAUGUUCCUUGGAAUUCUCGGGUGCCAA` — result for “RBNS enrichment (R)”: 0.453.
`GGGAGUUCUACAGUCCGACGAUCGCCUCUUUCAUUGAAUGAGAAUUGCUUUCGUAUAGUUCACAUUAGAAAAAUGCCUAAUAUACUAAAGUAAACCAAACGUUGUCACUUUUCUCUUGUUCUUGAAACAUUGCUGGAAUUCUCGGGUGCCAA`: “RBNS enrichment (R)” 0.322.

Sample 2 — method: protein binding microarray; molecule type: double-stranded DNA, one strand shown; matrix: in vitro; tested at: not given; relative to: not given; direction: higher = stronger binding
Target: Histone acetyltransferase KAT6A, winged helix 2, GST fusion (KAT6A, Homo sapiens, UniProt Q92794, residues 85-181)
Notes: 8-mer, flanks averaged, mean of 2 arrays, mostly near background
Construct (chain): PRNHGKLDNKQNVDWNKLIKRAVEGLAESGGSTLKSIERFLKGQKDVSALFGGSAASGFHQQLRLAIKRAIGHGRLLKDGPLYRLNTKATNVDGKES
`CCCCAATA` gave an E-score of -0.194.
For `ACGGTAAG`, the E-score was -0.149.
`ACGCGTAA` gave an E-score of -0.279.
`ATAACTCG` has an E-score of 0.0189.
`GATACTGC` has an E-score of -0.00941.
With `TCGGTTAA` the E-score was 0.0433.
`GATGGGGC` gave an E-score of 0.0606.
`CGTAGCCC` gave an E-score of 0.0278.
The E-score of `CCTATCAG` is reported as -0.125.
With `ACTATTCT` the E-score was -0.0257.
For `CTTGTTCA`, the E-score was -0.0714.
`GTTCCTCA` gave an E-score of 0.0655.
The E-score of `AGCTTGCA` is reported as 0.134.
For `AGAATGAG`, the E-score was -0.174.
For `GCTCGCCA`, the E-score was 0.0613.
With `CTGCCTGC` the E-score was 0.035.
For `ACACCCAT`, the E-score was -0.0348.
`CCATGCGA` has an E-score of 0.168.
`CATTCCGC` has an E-score of -0.0422.
For `GAAGATCA`, the E-score was 0.0168.
With `CAGCGGCA` the E-score was 0.164.
For `TAGTTAGA`, the E-score was -0.0183.

Sample 3 — method: protein-binding microarray; molecule type: hairpin DNA; matrix: in vitro; tested at: not given; relative to: not given; direction: higher = stronger binding
Target: Runt-related transcription factor 3, Runt domain (RUNX3, Homo sapiens, UniProt Q13761, residues 53-186)
UniProt Q13761, sequence (53-186, looked up): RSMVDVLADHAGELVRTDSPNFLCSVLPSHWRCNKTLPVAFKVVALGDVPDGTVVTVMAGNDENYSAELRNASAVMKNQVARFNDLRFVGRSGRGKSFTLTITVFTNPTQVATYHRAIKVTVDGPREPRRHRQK
Notes: whole hairpin DNA, median over replicate spots
The median fluorescence of `GAGGCCTGTTGCTGTTGGCCTCCTGGCCAACAGCAACAGGCCTCACACTC` is reported as 4860 a.u.
`CTCAGTTCCGTGGGCTGGACTCCTGTCCAGCCCACGGAACTGAGACACTC` has a median fluorescence of 4450 a.u.
With `GAGGCCTGTCGCGGTTGGCCTCCTGGCCAACCGCGACAGGCCTCACACTC (5mC at 5)` the median fluorescence was 6520 a.u.
With `GAGGCCCACGCGCAACAGCCTCCTGGCTGTTGCGCGTGGGCCTCACACTC` the median fluorescence was 5540 a.u.
With `GAGGCCTGTTGCGCGTGGCCTCCTGGCCACGCGCAACAGGCCTCACACTC` the median fluorescence was 5480 a.u.
`GAGGCCTGCGGTGGTTGGCCTCCTGGCCAACCACCGCAGGCCTCACACTC` has a median fluorescence of 5810 a.u.
The median fluorescence of `CTCAGTCCTGTGGGCTGGACTCCTGTCCAGCCCACAGGACTGAGACACTC` is reported as 4380 a.u.
`GAGGCCCACGCGCAACAGCCTCCTGGCTGTTGCGCGTGGGCCTCACACTC (5mC at 9)` gave a median fluorescence of 5340 a.u.
With `GAGGCCTGTTGTGGTCGGCCTCCTGGCCGACCACAACAGGCCTCACACTC` the median fluorescence was 6440 a.u.
For `GAGGCCCATCCGCAACAGCCTCCTGGCTGTTGCGGATGGGCCTCACACTC`, the median fluorescence was 5030 a.u.
`GAGGCCTGTAGCGGTTGGCCTCCTGGCCAACCGCTACAGGCCTCACACTC` gave a median fluorescence of 5420 a.u.
The median fluorescence of `GAGGCCTGTCGCGGTCGGCCTCCTGGCCGACCGCGACAGGCCTCACACTC` is reported as 5980 a.u.
The median fluorescence of `GAGGCCTGCCGCGGTTGGCCTCCTGGCCAACCGCGGCAGGCCTCACACTC (5mC at 9)` is reported as 5660 a.u.
For `GAGGCCTCGCGCGGTTGGCCTCCTGGCCAACCGCGCGAGGCCTCACACTC (5mC at 8)`, the median fluorescence was 4950 a.u.
`CTCAGTTCGGTGGGCTGGACTCCTGTCCAGCCCACCGAACTGAGACACTC (5mC at 8 36)` gave a median fluorescence of 4380 a.u.
With `GAGGCCTGTCGCGGTTGGCCTCCTGGCCAACCGCGACAGGCCTCACACTC (5mC at 12 32)` the median fluorescence was 5000 a.u.
The median fluorescence of `CTCAGTTCTGTGGCCTGGACTCCTGTCCAGGCCACAGAACTGAGACACTC` is reported as 3980 a.u.

Sample 4 — method: protein-binding microarray; molecule type: double-stranded DNA, one strand shown; matrix: in vitro; tested at: 2200 nM top; notes: 60-bp whole probe; together with: salmon DNA 0.4 mg/ml; relative to: random background probes; direction: higher = stronger binding; constant ends, left off below: GCCTAGCAC … GTCTTGATTCGCTTGACGCTGCTG
Target: Interferon regulatory factor 7, full length, phosphomimetic (IRF7, Homo sapiens, UniProt Q92985, residues 1-503, S471D/S472D/S475D/S476D/S477D/S483D/S484D/S487D)
Residues (chain): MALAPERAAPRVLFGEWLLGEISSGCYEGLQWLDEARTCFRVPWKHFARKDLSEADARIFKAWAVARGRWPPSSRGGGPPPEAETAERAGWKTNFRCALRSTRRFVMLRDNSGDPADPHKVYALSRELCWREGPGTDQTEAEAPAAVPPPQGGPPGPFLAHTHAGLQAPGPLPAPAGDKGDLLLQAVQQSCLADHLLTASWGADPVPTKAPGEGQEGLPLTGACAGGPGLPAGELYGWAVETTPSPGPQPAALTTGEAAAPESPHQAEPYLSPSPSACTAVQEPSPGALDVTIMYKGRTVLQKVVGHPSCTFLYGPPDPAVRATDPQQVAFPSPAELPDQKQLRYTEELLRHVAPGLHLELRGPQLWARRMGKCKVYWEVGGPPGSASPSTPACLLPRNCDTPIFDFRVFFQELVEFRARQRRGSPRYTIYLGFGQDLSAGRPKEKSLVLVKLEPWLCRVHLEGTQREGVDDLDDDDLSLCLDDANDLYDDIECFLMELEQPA
For `TCATGTTTCCATTTTCTACTGTGCTAG`, “fitted relative affinity” read 5.03 z-score.
`TTAGGTCTCAGTATCGATTAGTGCTAG` — result for “fitted relative affinity”: 0.369 z-score.
`GACGATATCAGTATCGAGCCGTGCTAG`: “fitted relative affinity” 0.209 z-score.
`TCACCTTTTTTTTTTTTACTGTGCTAG`: “fitted relative affinity” 1.86 z-score.
Under “fitted relative affinity”, `TTAGGTATCGGTATCGGCTAGTGCTAG` is recorded as 0.455 z-score.
`TTAAATCTCAGTCTCGATTAGTGCTAG` — result for “fitted relative affinity”: 0.249 z-score.
`AATACCTTCGAGTCTGCAACAGTGCTA`: “fitted relative affinity” 1.12 z-score.
For `GACGATATCAGGATCGAGACGTGCTAG`, “fitted relative affinity” read 0.191 z-score.
`CTATGAAGTCATGTCTTCAGGTGCTAG`: “fitted relative affinity” 0.298 z-score.
Under “fitted relative affinity”, `TCAGTTCTCAGACTGGGACTGTGCTAG` is recorded as 0.857 z-score.
`GACGATATCAGTTTCGACACGTGCTAG` — result for “fitted relative affinity”: 3.1 z-score.
Under “fitted relative affinity”, `TCATATTTACCTCTCACACTGTGCTAG` is recorded as 1.75 z-score.
Under “fitted relative affinity”, `GACGGTCTCGGACTAGGGACGTGCTAG` is recorded as -0.432 z-score.
For `TTTGGAGTCATTCTCAACCCGTGCTAG`, “fitted relative affinity” read 0.24 z-score.
Under “fitted relative affinity”, `GACGGTATCGGACCGGGGACGTGCTAG` is recorded as -0.432 z-score.
`GACGCTTTCAGTTCCGAGACGTGCTAG` — result for “fitted relative affinity”: 4.02 z-score.
For `GACGGTATTGACTTTCGGGACGTGCTA`, “fitted relative affinity” read 2.97 z-score.
